Results gathered from unrelated publications.
Each numbered part is a random draw from the data of one study; scales do not carry over between parts.

Sample 1 — technique: protein binding microarray; molecule type: double-stranded DNA, one strand shown; medium: in vitro; tested at: not given; reference: not given; direction: higher = stronger binding; endpoint: E-score
Target: Histone acetyltransferase KAT6A, winged helix 2, GST fusion (KAT6A, Homo sapiens, UniProt Q92794, residues 85-181)
Notes: 8-mer, flanks averaged, mean of 2 arrays, mostly near background
Construct (chain): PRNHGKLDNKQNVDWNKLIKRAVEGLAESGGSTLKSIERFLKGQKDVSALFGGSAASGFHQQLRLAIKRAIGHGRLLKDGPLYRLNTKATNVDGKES
GAAGTAAA: 0.107
GCTGTACC: 0.0848
CGAGTGAG: 0.144
AATCAGGG: -0.119
ATCCTGTC: 0.0671
GCTATCCA: -0.0335
ACGTGAGG: -0.0733
GTCCGGTA: 0.0785
ATACTTGA: -0.151
CTCTTATC: -0.116
AAGGGATT: -0.0229
AGCTCACG: -0.077
CCCGCAAC: 0.215
TGATCAAA: -0.0716
AGGAACTG: -0.023
GGGCACGA: 0.0698
AATGTTTG: -0.127
ACAGCCTC: -0.18
CCGGCTCA: 0.253
ATCATGTC: -0.0686

Sample 2 — technique: RNA Bind-n-Seq; molecule type: RNA; medium: in vitro; tested at: 365 nM; reference: no-protein control; direction: higher = stronger binding; endpoint: RBNS enrichment (R)
Target: RNA binding protein fox-1 homolog 2, RRM domain, GST-SBP tag (RBFOX2, Homo sapiens, UniProt O43251-10, residues 100-194)
Notes: natural RNA segment, single round, ends assumed
Construct (chain): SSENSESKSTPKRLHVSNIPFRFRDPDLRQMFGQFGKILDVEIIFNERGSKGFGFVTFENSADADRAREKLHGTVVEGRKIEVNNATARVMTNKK
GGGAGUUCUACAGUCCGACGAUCGUCCACCCUUCUCAUGUGACAGAUGGGGAAACUGAGGCCUUGAGAAGGAAAAAGGCUAAUCUAAGUUCCUGCGGGCAGUGGCAUGACUGGAGCACAGCCUCCUGCCUCCCUGGAAUUCUCGGGUGCCAA: 1.08
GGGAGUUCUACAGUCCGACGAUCCCAGUUCAUAAUUUAUAAAGAAGCAGUUUGUGUGUGUGUGGGUGUGUGUGUGCUCGCGAGCGCCAUCCACACUGGUCCUUUAGCAUUGUUUCCAUCAUAUUGCAGUGUAUUGGAAUUCUCGGGUGCCAA: 1.89
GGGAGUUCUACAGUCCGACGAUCGCCAUUCAGUAUUAAUAGAUCAUGAUUUCACUAAUCCAUCACAUUAUAGCACCAUGAGAGCUACAGUACUCUUGAAUUCUAGAGAUAGGUUUUGGUAAAUGUGAACUUGUUGGAAUUCUCGGGUGCCAA: 1.39
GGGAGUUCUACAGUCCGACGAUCUAGCACCCAAAUUAAGUUGCUUAAGAGAGGAAAUGUACAUCUUGUAUAACUUAGGGAGCGAAGAAAAUGUAGGCGCGAAAGUGAAAAGUGAGGCAGCUAGUUCUUCCUAUUGGAAUUCUCGGGUGCCAA: 0.494
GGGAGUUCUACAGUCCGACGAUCUUAAAGUGAGAUUAAUUUAGCUGUAAUUUGGUUAAAAACUUCCUAAGAGAGAAAAUUAAGUCUACUGAUUUGGUAUAGGUAAAUGGACAUUAAACUUUUUUAAAGUAAAGUGGAAUUCUCGGGUGCCAA: 0.431
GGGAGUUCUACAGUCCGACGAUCCUGUACCUUUAUAUAUAUGUGUGUGUACAUAUAUACAUAUAUAAACUGUAUAGUGUACAUGGUAAUGAUUUAUUGCUAUGCCCCAGAUCCUUAAUGUAGUUCUCAUCCUCUGGAAUUCUCGGGUGCCAA: 0.221
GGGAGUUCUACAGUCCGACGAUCGCCUGUAUUAUAAUGUGAAUUUUGUAGAUGUAGGGAAUAAGUUGCUGUAAAAUGUGUGUAAAUUUGUAUCCUUUACACAAGUUUAGUCUCUUACUCUGACACAUAGUAAUUGGAAUUCUCGGGUGCCAA: 1.32
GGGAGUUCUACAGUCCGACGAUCUAGAGUAAGCCUGACAUCCUCCUCCAUUCUCAAGACUCUCUCUCUUUCAUUUGGUACCCUGUACCCCAGUGCCUCUGCGUCGCCUCCUUCUUGUGUGCCUUCUGAGCUGUUGGAAUUCUCGGGUGCCAA: 0.567

Sample 3 — technique: RNA Bind-n-Seq; molecule type: RNA; medium: in vitro; tested at: not given; reference: input RNA pool; direction: higher = stronger binding; endpoint: bound/input enrichment
Target: RING finger protein unkempt homolog, zinc fingers 1-6, GST-SBP tag (UNK, Homo sapiens, UniProt Q9C0B0, residues 30-357)
UniProt Q9C0B0, sequence (30-357, looked up): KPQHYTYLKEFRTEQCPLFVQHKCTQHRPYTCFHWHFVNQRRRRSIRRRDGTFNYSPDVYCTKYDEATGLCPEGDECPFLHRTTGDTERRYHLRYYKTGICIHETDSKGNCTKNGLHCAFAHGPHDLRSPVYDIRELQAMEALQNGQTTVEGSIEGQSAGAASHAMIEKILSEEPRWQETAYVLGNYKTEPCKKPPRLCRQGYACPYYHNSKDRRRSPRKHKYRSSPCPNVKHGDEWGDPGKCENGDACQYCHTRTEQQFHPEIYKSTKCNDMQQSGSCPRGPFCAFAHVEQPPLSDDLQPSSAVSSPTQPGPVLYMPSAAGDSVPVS
Notes: RNA with constant flanks, human-mouse chimeric sites, ends assumed
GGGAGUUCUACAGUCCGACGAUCUUACCCGAGAACGAGGAUGAGCUGGAGAGCACCAACAGACGCUAUACCAAGAGGGACUGCAGCACUUUCCUCAGAACUAGCGAGACGGGCAUCGUGGACCAGGUCAUGGUCACUCUCAACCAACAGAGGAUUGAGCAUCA: 0.177 ratio
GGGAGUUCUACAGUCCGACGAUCAAAGAACUUGCUGAUGAUGAAGAUGAGGAAGACAAUGAUGAUGUUGAACCCAUUUCUGAAUUUCGAUUUGUGCCCAGUGAUAAGUCAGCAUUGGAGGCAAUGUUCACAGCAAUGUGUGAGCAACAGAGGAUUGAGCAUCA: 0.301 ratio
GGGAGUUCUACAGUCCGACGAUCAGAAAGCAAAACUUGGAACGAUUUAAGAAAGGAGAUGUAAGAUUCUUGAUUUGCACAGAUGUAGCUGCUAGAGGGAUUGAUAUCCAUGGUGUUCCUUAUGUGAUCAACGUCACCCUGCCUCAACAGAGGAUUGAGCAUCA: 0.285 ratio
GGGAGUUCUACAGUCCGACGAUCGACUUUGGGACUGGUCCUCGUAAUGCAGCCUUCUAUAGCCCUCAUGGACAUAUAUUAGUGCUGGCUGGAUUUGGAAAUCUGAGGGGACAAAUGGAAGUAUGGGAUGUUAAAAACUACAAGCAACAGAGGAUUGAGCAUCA: 0.487 ratio
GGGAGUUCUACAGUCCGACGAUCUGGCGCCUGCGCUCCCCACUCGUGUUUUUAAGUGUAUUUUUAUAAGACAUGUGUAUUUACAAUUGAGCUUUUGUUACUAUAAUACUGAAUGCUACUGGAGAUUAUGAAAAAUGUUUCAAUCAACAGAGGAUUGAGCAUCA: 0.284 ratio
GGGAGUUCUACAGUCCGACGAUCUAAAUUAGGGCUGCCGUUUUCUGUUUCUCCCUGGGCUGCGGAAAGCCAGGCGGUUUUAUCUAGCUUAUACAAGGCUGCUGGUGUUCCCUCCCUCCCGCCACGAGGGUGUUUUUGGCUGCACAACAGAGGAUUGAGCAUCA: 3.14 ratio
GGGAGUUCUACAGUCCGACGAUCGUGACUGGUGUUAAGAUUUCCCCUCAGCAAAGAAGUGCAGUAGUCACAAUAAUCCCUUCUGUGGUGAGUGCCAGUCAGAUAAAAGAGCUGGUCCCAGACCUCAGUUUAGACAUGGGAACUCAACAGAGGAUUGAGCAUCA: 0.322 ratio
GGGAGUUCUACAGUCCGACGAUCUUAUCCAAGACUCAACGAAAGACUCCAACGGUUAUUCAUAAACAUUAUCAAAUUCAUCGCAUUAGACAUUUUUAUAUGAGAAAAGUCAAAUUUACUCAACAGAAUUACCAUGAUAGACUGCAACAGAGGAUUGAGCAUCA: 9.62 ratio

Sample 4 — technique: universal PBM; molecule type: double-stranded DNA, one strand shown; medium: in vitro; tested at: 600 nM; direction: higher = stronger binding; endpoint: E-score
Target: Sal-like protein 4, full length isoform A (SALL4, Homo sapiens, UniProt Q9UJQ4, residues 1-1053)
UniProt Q9UJQ4, sequence (whole entry, looked up): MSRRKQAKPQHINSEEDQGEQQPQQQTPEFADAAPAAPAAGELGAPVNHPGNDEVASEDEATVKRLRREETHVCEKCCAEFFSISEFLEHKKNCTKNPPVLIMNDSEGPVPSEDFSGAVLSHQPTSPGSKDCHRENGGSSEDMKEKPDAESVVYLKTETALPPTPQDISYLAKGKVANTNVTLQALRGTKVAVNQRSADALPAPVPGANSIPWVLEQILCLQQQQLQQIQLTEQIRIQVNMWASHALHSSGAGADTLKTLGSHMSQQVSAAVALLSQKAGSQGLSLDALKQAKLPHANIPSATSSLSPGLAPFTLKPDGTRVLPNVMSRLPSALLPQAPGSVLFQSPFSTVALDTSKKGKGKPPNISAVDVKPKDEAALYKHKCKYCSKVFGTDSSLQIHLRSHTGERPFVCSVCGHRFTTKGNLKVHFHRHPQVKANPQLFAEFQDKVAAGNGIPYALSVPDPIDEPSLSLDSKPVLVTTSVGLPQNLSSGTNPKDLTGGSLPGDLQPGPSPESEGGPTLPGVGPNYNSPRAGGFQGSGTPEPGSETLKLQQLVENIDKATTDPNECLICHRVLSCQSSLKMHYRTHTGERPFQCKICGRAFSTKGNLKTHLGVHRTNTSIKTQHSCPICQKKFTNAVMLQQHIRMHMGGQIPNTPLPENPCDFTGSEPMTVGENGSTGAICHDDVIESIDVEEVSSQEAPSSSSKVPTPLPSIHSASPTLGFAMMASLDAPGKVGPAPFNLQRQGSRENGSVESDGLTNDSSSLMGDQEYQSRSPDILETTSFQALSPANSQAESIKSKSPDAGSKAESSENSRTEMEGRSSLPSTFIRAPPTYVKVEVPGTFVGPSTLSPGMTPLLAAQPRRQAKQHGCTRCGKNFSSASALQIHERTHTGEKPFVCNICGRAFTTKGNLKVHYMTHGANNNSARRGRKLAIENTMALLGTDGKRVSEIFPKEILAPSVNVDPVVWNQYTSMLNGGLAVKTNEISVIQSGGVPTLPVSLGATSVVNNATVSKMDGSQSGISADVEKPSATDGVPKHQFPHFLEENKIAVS
Notes: 8-mer, flanks averaged, mean of replicates
AAGATCTT: 0.211
AGGTTGCC: -0.211
AAAAATCA: 0.303
ATCAGCCG: -0.287
GACAACGA: -0.0185
GGAGCACC: -0.299
CAGGCATC: -0.0911
GCATCACC: -0.24
AACAACGA: 0.14
ATTACAAA: 0.315
GAGCGAGC: -0.17
AGGCCCCA: -0.324
AAGACGCT: -0.036
CACGACAA: 0.0179
ACTTCTCT: 0.141
ACAGTTCA: 0.128
GTGATCAA: 0.0683
ACTTCTGG: -0.218
ACGGCACA: -0.105
CCAGGGAG: -0.337
TCATTTCA: 0.226
AAACTATT: 0.274
AAACGCTT: 0.061
CATGCGGC: -0.193
AAGATTCG: 0.0863

For quick reference, copied from above (sample 1):
ACGTGAGG: -0.0733
GTCCGGTA: 0.0785
ATCATGTC: -0.0686
ACAGCCTC: -0.18
CTCTTATC: -0.116
ATCCTGTC: 0.0671
